Experimental data pooled from the literature.
Compare with care: the assays were run in different laboratories. ± gives the spread as reported.

SMILES | assay | system | setting | quantity | value
COc1cccc(OC)c1-c1cc(C(=O)NC2(C(=O)O)C3CC4CC(C3)CC2C4)nn1-c1ccc(C(=O)NCCNC(=O)[C@H](CCCCNC(=O)[C@H](CC(C)C)NC(=O)C2OC2C(=O)O)NC(=O)CN2CCN(CC(=O)[O-])CCN(CC(=O)[O-])CCN(CC(=O)[O-])CC2)cc1C(C)C.[177Lu+3] (mixture of isomers) |  | mouse, HT-29 xenograft, heart | 24 h post injection | tissue uptake | 0.33 %ID/g
CCCC[C@H](NC(=O)CCCCCCCNC(=O)CN1CCN(CC(=O)O)CCN(CC(=O)O)CC1)C(=O)N[C@H]1CC(=O)NCCCC[C@@H](C(N)=O)NC(=O)[C@H](Cc2c[nH]c3ccccc23)NC(=O)[C@H](CCCNC(=N)N)NC(=O)[C@@H](Cc2ccccc2)NC(=O)[C@H](Cc2c[nH]cn2)NC1=O [fluorine-18 labelled] |  | C57 mice B16-F10 melanoma, blood | intravenous, 0.37 MBq, 2 h | tissue uptake | 0.21 ± 0.06 %ID/g
COc1cccc(OC)c1-c1cc(C(=O)NC2(C(=O)O)C3CC4CC(C3)CC2C4)nn1-c1ccc(C(=O)N(C)CCOCCN(C)C(=O)[C@H](CCCCNC(=O)[C@H](CC(C)C)NC(=O)C2OC2C(=O)O)NC(=O)CN2CCN(CC(=O)[O-])CCN(CC(=O)[O-])CCN(CC(=O)[O-])CC2)cc1C(C)C.[177Lu+3] (mixture of isomers) |  | mouse, HT-29 xenograft, liver | 72 h post injection | tissue uptake | 0.69 %ID/g
CC(C)Cc1ccc(C(C)C(=O)N[C@@H](CCCCNC(=O)CCOCCOCCOCCOCCOCCOCCNC(=O)CN2CCN(CC(=O)[O-])CCN(CC(=O)[O-])CCN(CC(=O)[O-])CC2)C(=O)Nc2cccc3c(C(=O)NCC(=O)N4CC(F)(F)C[C@H]4C#N)ccnc23)cc1.[177Lu+3] (some centres unmarked) |  | mouse, U-87 MG tumour xenograft, kidneys | 48 h | tissue uptake | 0.55 ± 0.18 %ID/g
COc1cccc(OC)c1-c1cc(C(=O)NC2(C(=O)O)C3CC4CC(C3)CC2C4)nn1-c1ccc(C(=O)N(C)CCCN(C)CCCN(C)C(=O)[C@H](CCCCNC(=O)[C@H](CC(C)C)NC(=O)C2OC2C(=O)O)NC(=O)CN2CCN(CC(=O)[O-])CCN(CC(=O)[O-])CCN(CC(=O)[O-])CC2)cc1C(C)C.[177Lu+3] (mixture of isomers) |  | mouse, HT-29 xenograft, kidney | 72 h post injection | tissue uptake | 5.2 %ID/g
O=C(Nc1ccc(C2CCCCC2)cc1)C1(N2CCOCC2)CC1 | hepatocyte stability | cryopreserved rat hepatocytes | 1 µM | hepatic clearance | 45 mL/min/kg
O=C(O)CCCOc1ccc([18F])cc1-c1cc(-c2ccccc2C(F)(F)F)n(-c2ccccc2)n1 |  | mouse, muscle | intravenous, dose not given, 180 min | tissue uptake | 2.74 ± 0.2 %ID/g
[123I]c1ccc2nc(-c3ccc(-n4ccnn4)nc3)cn2c1 |  | male Wistar rat, large intestine | intravenous, 4 MBq, 1 h | tissue uptake | 0.139 ± 0.032 %ID/g
O=C(NCc1cccc(Cl)c1)c1ccc([C@H]2[C@@H](F)[C@@H](F)C[C@@H](F)[C@H]2F)cc1 | hepatocyte stability | cryopreserved rat hepatocytes | 1 µM | hepatic clearance | 42 mL/min/kg
N#C[C@@H]1CC(F)(F)CN1C(=O)CNC(=O)c1ccnc2c(NC(=O)CCOCCOCCOCCOCCOCCOCCNC(=O)[C@H](CCCCNC(=O)CN3CCN(CC(=O)[O-])CCN(CC(=O)[O-])CCN(CC(=O)[O-])CC3)NC(=O)CCCc3ccc(I)cc3)cccc12.[177Lu+3] |  | mouse, U-87 MG tumour xenograft, kidneys | 1 h | tissue uptake | 1.97 ± 0.59 %ID/g
O=C(NCC1OC2CCC=CCCC2O1)c1ccc([18F])nc1 (centres unmarked) |  | healthy female BALB/c nude mice, spleen | intravenous, 7.4 MBq per mouse, 5 min | tissue uptake | 3.8 ± 1 %ID/g
CCCC[C@H](NC(=O)CNC(=O)CNC(=O)[C@H](CCCCNC(=O)[C@H](CC(=O)O)NC(=O)C(C)c1ccc(CC(C)C)cc1)NC(=O)CN1CCN(CC(=O)O)CCN(CC(=O)O)CCN(CC(=O)O)CC1)C(=O)N[C@H]1CC(=O)NCCCC[C@@H](C(N)=O)NC(=O)[C@H](Cc2c[nH]c3ccccc23)NC(=O)[C@H](CCCNC(=N)N)NC(=O)[C@@H](Cc2ccccc2)NC(=O)[C@H](Cc2c[nH]cn2)NC1=O (some centres unmarked) [lutetium-177 labelled] |  | C57 mouse, intestines | intravenous, 2 h, 177Lu-labelled, receptor blockade, with: unlabelled NDP-MSH 10 µg co-injected | tissue uptake | 1.29 ± 0.33 %ID
Cc1cc(C)n(CCN(CCN)CCCCCCNC(=O)[C@@H](N)Cc2c[nH]cn2)n1.[99Tc+].[C-]#[O+].[C-]#[O+].[C-]#[O+] |  | BALB/c nude mice, MCF7 xenograft, tumor | intravenous, 4 h | tissue uptake | 0.27 ± 0.06 %IA/g
N#C[C@@H]1CC(F)(F)CN1C(=O)CNC(=O)c1ccnc2c(NC(=O)[C@@H](N)CCCCNC(=O)CCOCCOCCOCCOCCOCCOCCNC(=O)CN3CCN(CC(=O)[O-])CCN(CC(=O)[O-])CCN(CC(=O)[O-])CC3)cccc12.[177Lu+3] |  | mouse, U-87 MG tumour xenograft, lung | 4 h | tissue uptake | 0.81 ± 0.3 %ID/g
[11CH3]N1CCC(NC(=O)c2cc(-c3c(O)cc(O)cc3Oc3ccc([N+](=O)[O-])cc3)on2)CC1 |  | Wistar rat, female, healthy, blood | intravenous, 60 min | tissue uptake | 2.6 ± 0.8 %ID
O=C(NCC1OC2CCC=CCCC2O1)c1ccc(COCCOCCOCC[18F])cc1 (centres unmarked) |  | healthy female BALB/c nude mice, brain | intravenous, 7.4 MBq per mouse, 120 min | tissue uptake | 1.9 ± 0.1 %ID/g
N#C[C@@H]1CC(F)(F)CN1C(=O)CNC(=O)c1ccnc2c(NC(=O)[C@H](CCCCNC(=O)CCOCCOCCOCCOCCOCCOCCNC(=O)CN3CCN(CC(=O)[O-])CCN(CC(=O)[O-])CCN(CC(=O)[O-])CC3)NC(=O)CCCc3ccc(I)cc3)cccc12.[177Lu+3] |  | mouse, U-87 MG tumour xenograft, lung | 48 h | tissue uptake | 0.37 ± 0.25 %ID/g

Excerpt of the above:
SMILES | assay | system | setting | quantity | value
N#C[C@@H]1CC(F)(F)CN1C(=O)CNC(=O)c1ccnc2c(NC(=O)[C@H](CCCCNC(=O)CCOCCOCCOCCOCCOCCOCCNC(=O)CN3CCN(CC(=O)[O-])CCN(CC(=O)[O-])CCN(CC(=O)[O-])CC3)NC(=O)CCCc3ccc(I)cc3)cccc12.[177Lu+3] |  | mouse, U-87 MG tumour xenograft, lung | 48 h | tissue uptake | 0.37 ± 0.25 %ID/g
